Published values pooled from the literature.
Lines come from different studies, so protocols differ. ± gives the spread as reported. ≈ marks a conversion by molar mass, not a printed value.

SMILES	assay	system	conditions	scale	measurement	value
COc1ccc(Nc2nc(Nc3ccc(OCCOCC[18F])cc3)ncc2Br)cc1		ICR mice, S180 tumour	intravenous, 370 kBq, 5 min	relative to: tumour over blood	uptake ratio	0.58
O=C(Nc1ccc([C@H]2[C@@H](F)[C@@H](F)C[C@@H](F)[C@H]2F)cc1)C1(N2CCOCC2)CC1	hepatocyte stability	cryopreserved mouse hepatocytes	1 µM		hepatic clearance	42 mL/min/kg
C=C(NC(=O)c1csc(-c2nc3c(cc2O)-c2nc(cs2)C(=O)NC(C(C)O)C(=O)NC(=C(C)OC)c2nc(cs2)C(=O)NC2c4nc(cs4)C(=O)NC(COC(=O)c4c5c6c(cccc6n4O)COC(=O)C(OC4CC(C)(O)C(N(C)C)C(C)O4)C2OC5)c2nc-3cs2)n1)C(N)=O (stereo not shown)		female Sprague-Dawley rat, plasma	intravenous, 18 mg/kg, single dose, infusion		half-life	6.24 h
N#Cc1cccc(N2CN(CC(=O)NCC(F)(F)F)C(=O)C23CCN(C(=O)c2cnc4[nH]ncc4c2)CC3)c1		human liver microsomes			CLint	10 µL/min/mg protein
Cc1c(COc2cc(OCc3cccc(C#N)c3)c(CN3C[C@H](O)C[C@@H]3C(=O)O)cc2Cl)cccc1-c1ccc2c(c1)OCCO2		rat, Sprague-Dawley, plasma	1.0 mg/kg, free drug solution		t1/2	0.167 h
CCCCCC(=O)[O][Pt]([Cl])([Cl])[O]C(=O)CCCCC.N.N	ICP-MS, item: platinum	nude mice, blood	intravenous, equimolar single dose		CL2	8.74e-05 mg/(ng/mL)/h
C/C(N)=N/C(=N\S(=O)(=O)c1ccc(C(F)(F)F)cc1)N1C[C@H](c2ccccc2)C(c2ccc(Cl)cc2)=N1		male C57BL/6 mouse, muscle	intravenous, 10 mg/kg		half-life	2.5 h
Cc1noc(C)c1Cn1cc(N2C(=O)CN(Cc3cccc(OS(=O)(=O)O)c3)C2=O)cn1		Sprague-Dawley rat, male	oral, 100 mg/kg of parent drug, 0.25 h		plasma concentration	3020 ng/mL
CC(C)CC(=O)Nc1ccc(C2CCCCC2)cc1	hepatocyte stability	cryopreserved rat hepatocytes	1 µM		hepatic clearance	41 mL/min/kg
COc1cnc2cccc(N3CCc4c(cc(Cn5ccnc5)cc4-c4cn(C)nc4C(F)(F)F)C3=O)c2c1		CD-1 mouse, male, plasma	oral, 50 mg/kg		AUC extrapolated	0.1%
O=C(NCc1cccc(Cl)c1)c1ccc([C@H]2[C@@H](F)[C@@H](F)C[C@@H](F)[C@H]2F)cc1	liver microsome stability	dog liver microsomes	1 µM		hepatic clearance	15 mL/min/kg
COc1cccc(OC)c1-c1cc(C(=O)NC2(C(=O)O)C3CC4CC(C3)CC2C4)nn1-c1ccc(C(=O)NCCNC(=O)[C@H](CCCCNC(=O)[C@H](CC(C)C)NC(=O)C2OC2C(=O)O)NC(=O)CN2CCN(CC(=O)[O-])CCN(CC(=O)[O-])CCN(CC(=O)[O-])CC2)cc1C(C)C.[177Lu+3] (mixture of isomers)		mouse, HT-29 xenograft	24 h post injection, biodistribution	relative to: tumour over bone uptake	tumour-to-bone ratio	24.1
CC(C)(O)Cn1nc(-c2ccccc2)c2c(Cl)c(-c3ccccc3)nnc21		mouse juvenile P6, plasma	intraperitoneal, 15 mg/kg		AUC	8.8 µM·h
CCCCCCCOc1ccc(CC[C@](N)(CO)COP(=O)(O)O)cc1C(F)(F)F		healthy male humans, plasma	0.5 mg amiselimod, day 1, mean		AUCtau	17.3 ng·h/mL
CC1(C)CC[C@]2(NC(=O)C(C)(F)F)CC[C@]3(C)[C@H](C(=O)C=C4[C@@]5(C)C=C(C#N)C(=O)C(C)(C)[C@@H]5CC[C@]43C)[C@@H]2C1	geometric least squares mean	human, plasma	oral, 150 mg, given alone		AUC(0-inf)	1730 ng·h/mL
C=C1C[C@]2(C(=O)OC)C=C(C(=O)Nc3cccc(C(=O)Nc4ccc(Nc5nccc(-c6cccnc6)n5)c(C)c4)c3)C(=O)[C@H]1C2		Wistar rat male, blood plasma	10 µM, 120 min		compound remaining	0.42%
Cc1cc(C)n(CCN(CCN)CCCCCCNC(=O)[C@@H](N)Cc2c[nH]cn2)n1.[99Tc+].[C-]#[O+].[C-]#[O+].[C-]#[O+]		BALB/c nude mice MCF7 xenograft	intravenous, 4 h		excretion	52.5 ± 2.48 % injected activity
C=CC(=O)Nc1cc(Nc2nccc(-c3cn(C)c4ccccc34)n2)c(OC)cc1N(C)CCNC	storage stability	human plasma	24 h, -80 °C, medium QC level		recovery	100%
CC[C@H](C)[C@@H]1NC(=O)[C@H](Cc2ccc(O)cc2)NC(=O)CCCSC[C@@H](C(=O)N(CC(=O)N[C@@H](CC(C)C)C(=O)NCC(N)=O)Cc2ccc(F)cc2)NC(=O)[C@H](CC(N)=O)NC(=O)[C@H](CCC(N)=O)NC1=O		human	intranasal, 5 µg single dose		AE leading to discontinuation	0%
O=C(Nc1cnccc1-c1ccc([18F])cc1)c1ccnc(NC(=O)C2CC2)c1		FVB/NJ mice (both sexes), feces	intravenous, dose not given, 120 min		SUV	2.84
O=C(N1CCCCC1)C12CC(c3ccccc3)(C1)C2(Br)Br		pooled human liver microsomes	2 µM, pH 7.4		elimination rate constant	0.000967 s⁻¹
Cc1ncsc1-c1ccc(CNC(=O)[C@@H]2C[C@@H](O)CN2C(=O)[C@@H](NC(=O)COCC(C)(COCCOCCOCCNC(=O)C[C@@H]2N=C(c3ccc(Cl)cc3)c3c(sc(C)c3C)-n3c(C)nnc32)COCCOCCOCCNC(=O)C[C@@H]2N=C(c3ccc(Cl)cc3)c3c(sc(C)c3C)-n3c(C)nnc32)C(C)(C)C)cc1		male C57BL/6 mice, plasma	subcutaneous, 5 mg/kg, 15 min, sample diluted 20-fold		plasma concentration	683 ng/mL
Cc1nc(N)nc2c1C(=O)N[C@@H](c1ccc(F)cc1-c1cccc(O[11CH3])n1)C2	ex vivo biodistribution	healthy mice, muscle	60 min post-injection, baseline, vehicle pre-treatment		tracer uptake	14.8 ± 12.7 %ID
CN1CCC[C@]1(C)/C=C/S(=O)(=O)NC(=O)Nc1c2c(cc3c1C(O)CC3)CCC2 (stereo partly shown)		human, plasma	oral, 100 mg twice daily of parent drug, day 14, metabolite of dosed drug		AUC(0-inf)	541000 ng·h/mL
Cc1cc(-c2ccc(C(=O)[C@@H]3CCCC[C@H]3C(=O)Nc3cnn4c3C(=O)NCC4)cc2)[nH]n1		human, urine	oral, 200 mg, 192-216 h	relative to: dose	recovery of radioactivity per interval	< 0.01%

SMILES	assay	system	conditions	scale	measurement	value
COc1ccccc1NC(=O)OC1C(C)C(OC)C=COC2(C)Oc3c(C)c(O)c4c(c3C2=O)C2=NC3(CCN(CC(C)C)CC3)NC2=C(NC(=O)C(C)=CC=CC(C)C(O)C(C)C(O)C1C)C4=O (stereo not shown)		CD-1 mouse, plasma	oral, dose not given, efficacy dose		fAUC/MIC ratio	3.46
COc1cccc(OC)c1-c1cc(C(=O)NC2(C(=O)O)C3CC4CC(C3)CC2C4)nn1-c1ccc(C(=O)N(C)CCOCCOCCN(C)C(=O)[C@H](CCCCNC(=O)[C@H](CC(C)C)NC(=O)C2OC2C(=O)O)NC(=O)CN2CCN(CC(=O)[O-])CCN(CC(=O)[O-])CCN(CC(=O)[O-])CC2)cc1C(C)C.[177Lu+3] (mixture of isomers)		mouse, HT-29 xenograft	72 h post injection, biodistribution	relative to: tumour over bone uptake	tumour-to-bone ratio	4.95
COC1C(c2ccc(Cl)c(Cc3ccc(OC4CCOC4)cc3)c2)OC(CO)C(O)C1O (stereo not shown)		human plasma	1 µM, 5 h		unbound fraction	0.161
CCCc1cc2cc(-n3nc(CC)c4c3CC(C)(C)CC4=O)cc(N3CCC(O)CC3)c2c(=O)[nH]1			pH 6.8		aqueous solubility	0.228 µM (≈ 0.109 µg/mL)
CCN(CC)c1ccc2c(c1)O[B-]1(c3ccccc3C#N)OC(=O)C(c3ccccc3)=N[N+]1=C2 (stereo not shown)		toluene			fluorescence lifetime	2.66 ns
CCC1CNC(CC)CN(C(C(=O)[O-])c2ccc(C(=O)[O-])cc2)C(CC)CN(CC(=O)[O-])C(CC)CN1.[Mn+2] (stereo not shown)	ICP-MS	BALB/c mouse, intestine	intravenous, 0.05 mmol/kg, 5 min, without anaesthesia		Mn content	19.7 ± 3.81 µg/g
Fc1ccc(OCC2CN(Cc3cn4ccccc4n3)CCC2(F)F)cc1 (stereo not shown)	equilibrium dialysis	human plasma			fu	0.0045
CC(=O)N([O-])CCCCCNC(=O)CCC(=O)N([O-])CCCCCNC(=O)CCC(=O)N([O-])CCCCCN.[89Zr+4]		mouse, heart	24 h		tracer uptake	0.02 %ID/g
CC(C)CC(=O)Nc1ccc([C@H]2[C@@H](F)[C@@H](F)C[C@@H](F)[C@H]2F)cc1	hepatocyte stability	cryopreserved rat hepatocytes	1 µM		hepatic clearance	26 mL/min/kg
COc1cccc(OC)c1-c1cc(C(=O)NC2(C(=O)O)C3CC4CC(C3)CC2C4)nn1-c1ccc(C(=O)N(C)CCCN(C)C(=O)[C@H](CCCCNC(=O)[C@H](CC(C)C)NC(=O)C2OC2C(=O)O)NC(=O)CN2CCN(CC(=O)[O-])CCN(CC(=O)[O-])CCN(CC(=O)[O-])CC2)cc1C(C)C.[177Lu+3] (mixture of isomers)		mouse, HT-29 xenograft, lung	4 h post injection		tissue uptake	1.19 %ID/g
O=C(NC1CCC(F)(F)CC1)C(c1cncnc1)N(C(=O)C(F)Cl)c1ccc(OC(F)(F)F)cc1 (stereo not shown)		mouse liver microsomes	concentration not given, pH 7.4		CLint	< 9.6 µL/min/mg
O=C(Nc1ccc(C2CCCCC2)cc1)C1CC1	liver microsome stability	dog liver microsomes	1 µM		hepatic clearance	28 mL/min/kg
C=CC(=O)Nc1cc(Nc2nccc(-c3c[nH]c4ccccc34)n2)c(OC)cc1N(C)CCN(C)C	storage stability	human plasma samples	30 d, -80 °C, HQC level	relative to: nominal concentration	percentage recovery	12.2%
CNC(=O)c1ccc([C@H]2[C@@H](F)[C@@H](F)C[C@@H](F)[C@H]2F)cc1	hepatocyte stability	cryopreserved mouse hepatocytes	1 µM		hepatic clearance	21 mL/min/kg
COc1ccc2c(c1)CN(C(=O)CCN1CCC(Cc3ccccc3)CC1)CCS2		dog plasma	75 ng/mL		fu	0.068
O=C(Nc1cnccc1-c1ccc([18F])nc1)c1ccnc(NC(=O)C2CC2)c1		FVB/NJ mice, both sexes, liver	intravenous, 25 min, median, P-gp inhibitor pretreatment, together with: tariquidar 15 mg/kg iv		SUV	8.71
COc1cccc(OC)c1-c1cc(C(=O)NC2(C(=O)O)C3CC4CC(C3)CC2C4)nn1-c1ccc(C(=O)N(C)CCOCCN(C)C(=O)[C@H](CCCCNC(=O)[C@H](CC(C)C)NC(=O)C2OC2C(=O)O)NC(=O)CN2CCN(CC(=O)[O-])CCN(CC(=O)[O-])CCN(CC(=O)[O-])CC2)cc1C(C)C.[177Lu+3] (mixture of isomers)		mouse, HT-29 xenograft	72 h post injection, biodistribution	relative to: tumour over bone uptake	tumour-to-bone ratio	2.46
CCc1cnc(NC(=O)c2cc(S(=O)(=O)N3CCOCC3)ccc2N(C)C2CCCC2)s1		mouse, serum	10 mg/kg, 3 doses		Magnesium	2.1 mEq/L
COc1cc2c(cc1O)CCN1C[C@@H](CC(C)C)[C@H](O)C[C@H]21	item: non-deuterated analyte	healthy human male, plasma	oral, 25 mg, median, [14C]-tetrabenazine dosed		Tlag	0.5 h
Nc1ncc(-c2ccc([C@H]3[C@@H](F)[C@@H](F)C[C@@H](F)[C@H]3F)cc2)cn1	hepatocyte stability	cryopreserved rat hepatocytes	1 µM		hepatic clearance	10 mL/min/kg
COc1ccc2c(c1)O[B-]1(c3ccccc3)OC(=O)C(c3ccccc3)=N[N+]1=C2 (stereo not shown)		toluene			fluorescence lifetime	1.29 ns
CN(C)C(=O)CNC(=O)c1ccc(C2CCCCC2)cc1	hepatocyte stability	cryopreserved rat hepatocytes	1 µM		hepatic clearance	47 mL/min/kg
OC1(C(F)(F)F)CCN(c2nc(Nc3ccnc(C(F)(F)F)c3)nc(-c3cccc(C(F)(F)F)n3)n2)C1 (stereo not shown)		Sprague-Dawley rat, both sexes, plasma	oral gavage, 5 mg/kg, day 1		AUC(0-24 h)	6100 ± 654 ng·h/mL
O=C(c1ccc(-c2ccccc2)cc1)N1CCCCC1	metabolic stability	human, liver microsomes	2 µM, 25 min, pH 7.4		compound remaining	87%

Some of these lines once more:
SMILES	assay	system	conditions	scale	measurement	value
CC(C)CC(=O)Nc1ccc(C2CCCCC2)cc1	hepatocyte stability	cryopreserved rat hepatocytes	1 µM		hepatic clearance	41 mL/min/kg
Cc1ncsc1-c1ccc(CNC(=O)[C@@H]2C[C@@H](O)CN2C(=O)[C@@H](NC(=O)COCC(C)(COCCOCCOCCNC(=O)C[C@@H]2N=C(c3ccc(Cl)cc3)c3c(sc(C)c3C)-n3c(C)nnc32)COCCOCCOCCNC(=O)C[C@@H]2N=C(c3ccc(Cl)cc3)c3c(sc(C)c3C)-n3c(C)nnc32)C(C)(C)C)cc1		male C57BL/6 mice, plasma	subcutaneous, 5 mg/kg, 15 min, sample diluted 20-fold		plasma concentration	683 ng/mL
COc1ccc2c(c1)CN(C(=O)CCN1CCC(Cc3ccccc3)CC1)CCS2		dog plasma	75 ng/mL		fu	0.068
CCC1CNC(CC)CN(C(C(=O)[O-])c2ccc(C(=O)[O-])cc2)C(CC)CN(CC(=O)[O-])C(CC)CN1.[Mn+2] (stereo not shown)	ICP-MS	BALB/c mouse, intestine	intravenous, 0.05 mmol/kg, 5 min, without anaesthesia		Mn content	19.7 ± 3.81 µg/g
